Published values of several laboratories.
Parts stem from different laboratories: compare values within a part only. Several values in a cell are separate wells, animals, samples, runs or records.
Chain of UniProt Q8IWK6 (whole entry, looked up): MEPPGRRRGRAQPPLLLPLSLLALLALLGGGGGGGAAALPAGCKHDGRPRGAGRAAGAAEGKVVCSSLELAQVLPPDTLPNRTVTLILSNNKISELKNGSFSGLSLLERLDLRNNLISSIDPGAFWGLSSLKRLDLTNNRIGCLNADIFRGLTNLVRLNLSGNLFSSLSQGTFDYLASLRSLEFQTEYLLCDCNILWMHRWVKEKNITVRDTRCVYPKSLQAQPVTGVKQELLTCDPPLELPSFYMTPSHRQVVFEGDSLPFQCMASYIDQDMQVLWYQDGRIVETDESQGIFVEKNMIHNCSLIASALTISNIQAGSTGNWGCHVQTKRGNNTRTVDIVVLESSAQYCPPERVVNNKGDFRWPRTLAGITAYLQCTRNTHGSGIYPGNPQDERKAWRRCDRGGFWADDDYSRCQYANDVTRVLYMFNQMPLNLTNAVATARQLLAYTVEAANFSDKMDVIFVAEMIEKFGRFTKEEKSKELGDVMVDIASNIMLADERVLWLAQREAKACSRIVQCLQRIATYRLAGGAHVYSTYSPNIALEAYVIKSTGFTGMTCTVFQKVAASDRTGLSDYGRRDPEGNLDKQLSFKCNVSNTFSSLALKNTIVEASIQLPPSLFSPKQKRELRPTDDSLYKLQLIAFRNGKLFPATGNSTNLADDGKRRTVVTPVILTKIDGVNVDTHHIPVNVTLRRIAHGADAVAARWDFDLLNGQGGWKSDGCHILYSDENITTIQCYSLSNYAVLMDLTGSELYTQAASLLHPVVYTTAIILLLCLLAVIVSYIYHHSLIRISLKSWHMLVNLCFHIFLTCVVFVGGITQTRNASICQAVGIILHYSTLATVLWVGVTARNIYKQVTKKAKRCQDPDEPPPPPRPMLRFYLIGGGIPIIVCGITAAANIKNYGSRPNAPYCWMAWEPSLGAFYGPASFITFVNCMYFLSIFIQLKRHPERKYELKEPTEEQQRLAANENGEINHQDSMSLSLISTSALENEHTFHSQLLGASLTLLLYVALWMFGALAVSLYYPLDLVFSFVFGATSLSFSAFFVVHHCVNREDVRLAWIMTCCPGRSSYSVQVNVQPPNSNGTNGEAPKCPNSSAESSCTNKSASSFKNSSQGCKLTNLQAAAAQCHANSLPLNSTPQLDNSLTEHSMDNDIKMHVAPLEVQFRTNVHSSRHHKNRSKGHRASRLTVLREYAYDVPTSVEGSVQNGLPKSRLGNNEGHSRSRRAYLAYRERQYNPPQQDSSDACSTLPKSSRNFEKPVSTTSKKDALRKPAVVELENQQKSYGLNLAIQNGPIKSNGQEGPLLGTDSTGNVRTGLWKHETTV
Chain of UniProt P19525 (whole entry, looked up): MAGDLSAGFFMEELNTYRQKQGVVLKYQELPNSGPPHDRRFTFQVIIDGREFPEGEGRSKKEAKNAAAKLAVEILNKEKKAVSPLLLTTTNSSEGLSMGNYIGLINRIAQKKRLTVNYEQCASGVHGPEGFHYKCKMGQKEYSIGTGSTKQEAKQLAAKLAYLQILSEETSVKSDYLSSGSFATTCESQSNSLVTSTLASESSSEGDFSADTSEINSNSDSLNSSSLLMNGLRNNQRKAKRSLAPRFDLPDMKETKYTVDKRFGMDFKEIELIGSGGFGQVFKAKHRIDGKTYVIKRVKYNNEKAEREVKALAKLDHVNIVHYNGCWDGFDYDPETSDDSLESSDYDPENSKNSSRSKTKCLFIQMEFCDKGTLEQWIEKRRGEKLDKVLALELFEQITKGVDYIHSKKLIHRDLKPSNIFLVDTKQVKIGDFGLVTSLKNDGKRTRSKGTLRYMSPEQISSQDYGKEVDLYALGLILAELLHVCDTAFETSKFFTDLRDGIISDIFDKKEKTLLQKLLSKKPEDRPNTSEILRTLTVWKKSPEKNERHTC
Chain of UniProt Q96Q40 (whole entry, looked up): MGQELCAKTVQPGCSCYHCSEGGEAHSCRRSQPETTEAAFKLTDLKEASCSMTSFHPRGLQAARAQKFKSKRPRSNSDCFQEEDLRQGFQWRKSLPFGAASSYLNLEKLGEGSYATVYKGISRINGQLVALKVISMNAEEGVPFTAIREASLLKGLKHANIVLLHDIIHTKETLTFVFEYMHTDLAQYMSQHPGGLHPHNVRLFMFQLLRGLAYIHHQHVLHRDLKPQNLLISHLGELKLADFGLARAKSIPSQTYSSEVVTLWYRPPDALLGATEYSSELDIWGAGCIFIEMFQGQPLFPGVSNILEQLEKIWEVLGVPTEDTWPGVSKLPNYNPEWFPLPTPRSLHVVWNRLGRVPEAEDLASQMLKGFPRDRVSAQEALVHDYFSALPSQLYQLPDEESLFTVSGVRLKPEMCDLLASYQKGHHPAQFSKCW
Chain of UniProt Q13237 (whole entry, looked up): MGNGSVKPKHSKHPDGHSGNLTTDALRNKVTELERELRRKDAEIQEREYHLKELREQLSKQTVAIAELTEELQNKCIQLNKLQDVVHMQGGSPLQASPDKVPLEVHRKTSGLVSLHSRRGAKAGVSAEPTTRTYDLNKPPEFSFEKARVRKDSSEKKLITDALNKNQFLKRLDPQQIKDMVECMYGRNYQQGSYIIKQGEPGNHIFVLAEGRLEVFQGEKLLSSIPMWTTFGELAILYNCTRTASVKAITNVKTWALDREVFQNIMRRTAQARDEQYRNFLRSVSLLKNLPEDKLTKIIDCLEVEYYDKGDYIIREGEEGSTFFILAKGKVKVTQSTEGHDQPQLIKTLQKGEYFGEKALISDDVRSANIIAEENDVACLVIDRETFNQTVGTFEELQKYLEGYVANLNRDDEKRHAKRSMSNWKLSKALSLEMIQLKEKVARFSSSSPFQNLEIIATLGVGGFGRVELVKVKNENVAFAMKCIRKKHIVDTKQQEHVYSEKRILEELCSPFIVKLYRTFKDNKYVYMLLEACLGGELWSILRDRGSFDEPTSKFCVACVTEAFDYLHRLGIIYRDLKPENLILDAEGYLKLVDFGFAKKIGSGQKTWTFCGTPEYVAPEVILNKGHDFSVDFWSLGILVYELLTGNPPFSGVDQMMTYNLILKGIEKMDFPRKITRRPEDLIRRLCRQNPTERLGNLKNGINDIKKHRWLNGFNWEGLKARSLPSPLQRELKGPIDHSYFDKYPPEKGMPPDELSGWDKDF
Chain of UniProt P42684 (whole entry, looked up): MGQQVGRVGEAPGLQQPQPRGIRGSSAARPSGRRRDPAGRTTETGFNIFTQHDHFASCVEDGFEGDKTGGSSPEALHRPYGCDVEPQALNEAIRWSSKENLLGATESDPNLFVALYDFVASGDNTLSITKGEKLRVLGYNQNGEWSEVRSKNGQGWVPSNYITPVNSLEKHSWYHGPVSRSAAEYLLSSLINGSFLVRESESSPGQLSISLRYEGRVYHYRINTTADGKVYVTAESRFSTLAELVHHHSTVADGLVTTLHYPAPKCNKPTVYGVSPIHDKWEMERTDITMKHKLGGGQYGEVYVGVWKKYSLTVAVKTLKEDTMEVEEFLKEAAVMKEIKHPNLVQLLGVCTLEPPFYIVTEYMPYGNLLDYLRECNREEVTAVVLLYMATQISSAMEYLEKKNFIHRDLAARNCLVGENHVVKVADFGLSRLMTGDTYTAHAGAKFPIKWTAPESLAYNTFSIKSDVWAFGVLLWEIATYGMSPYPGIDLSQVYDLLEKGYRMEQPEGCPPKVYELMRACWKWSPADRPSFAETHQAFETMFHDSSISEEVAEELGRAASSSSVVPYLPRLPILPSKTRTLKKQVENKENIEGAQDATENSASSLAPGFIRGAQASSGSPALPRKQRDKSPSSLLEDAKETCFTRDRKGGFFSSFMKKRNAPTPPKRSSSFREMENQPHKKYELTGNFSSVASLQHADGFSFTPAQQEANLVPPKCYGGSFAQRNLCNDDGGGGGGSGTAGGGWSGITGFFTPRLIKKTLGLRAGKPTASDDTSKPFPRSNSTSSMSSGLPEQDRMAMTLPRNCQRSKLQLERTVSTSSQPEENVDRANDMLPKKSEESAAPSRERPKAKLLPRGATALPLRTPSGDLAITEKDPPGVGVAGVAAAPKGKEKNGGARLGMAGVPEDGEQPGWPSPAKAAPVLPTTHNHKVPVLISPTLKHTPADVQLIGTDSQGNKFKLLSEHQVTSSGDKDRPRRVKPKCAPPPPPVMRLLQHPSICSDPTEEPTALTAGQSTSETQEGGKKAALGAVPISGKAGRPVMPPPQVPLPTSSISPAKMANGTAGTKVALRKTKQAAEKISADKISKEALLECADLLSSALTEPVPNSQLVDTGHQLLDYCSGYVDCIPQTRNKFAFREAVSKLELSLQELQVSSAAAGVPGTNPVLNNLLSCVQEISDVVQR
Chain of UniProt Q14164 (whole entry, looked up): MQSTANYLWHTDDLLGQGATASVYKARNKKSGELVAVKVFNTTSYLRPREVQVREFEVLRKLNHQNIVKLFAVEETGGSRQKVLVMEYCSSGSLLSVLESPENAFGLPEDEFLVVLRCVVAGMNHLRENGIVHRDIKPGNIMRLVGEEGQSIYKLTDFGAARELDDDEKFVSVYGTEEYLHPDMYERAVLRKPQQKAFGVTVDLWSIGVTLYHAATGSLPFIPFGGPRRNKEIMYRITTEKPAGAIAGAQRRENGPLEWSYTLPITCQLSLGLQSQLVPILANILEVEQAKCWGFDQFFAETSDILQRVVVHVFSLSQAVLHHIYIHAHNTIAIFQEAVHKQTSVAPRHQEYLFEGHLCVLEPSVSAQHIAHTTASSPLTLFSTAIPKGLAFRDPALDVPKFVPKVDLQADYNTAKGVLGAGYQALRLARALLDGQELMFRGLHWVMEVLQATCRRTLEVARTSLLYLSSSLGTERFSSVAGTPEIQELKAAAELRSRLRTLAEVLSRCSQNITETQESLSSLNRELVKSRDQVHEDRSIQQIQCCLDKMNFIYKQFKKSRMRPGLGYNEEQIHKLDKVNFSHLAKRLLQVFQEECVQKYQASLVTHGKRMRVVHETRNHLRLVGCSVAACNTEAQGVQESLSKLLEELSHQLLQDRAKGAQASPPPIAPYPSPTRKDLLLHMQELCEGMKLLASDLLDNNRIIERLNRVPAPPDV

Set 1
Structure (SMILES): FC(F)(F)c1ccc2c(c1)nc(-c1cccnc1)n2C1CC1
Read-out: cell-free assay
Technique: competition with immobilised ligand
Concentration: 1 µM
target	remaining binding
CAMKK2 (Homo sapiens, UniProt Q96RR4)	100%
FLT3 (Homo sapiens, UniProt P36888, D835V)	92%
IKBKE (Homo sapiens, UniProt Q14164)	100%
CAMK1 (Homo sapiens, UniProt Q14012)	100%
EIF2AK2 (Homo sapiens, UniProt P19525)	89%
TEC (Homo sapiens, UniProt P42680)	100%
GAK (Homo sapiens, UniProt O14976)	100%
EGFR (Homo sapiens, UniProt P00533, A750P/del747-749)	87%
RET (Homo sapiens, UniProt P07949, M918T)	91%
IRAK3 (Homo sapiens, UniProt Q9Y616)	100%
CDK14 (Homo sapiens, UniProt O94921)	100%
PRKG2 (Homo sapiens, UniProt Q13237)	78%
NEK7 (Homo sapiens, UniProt Q8TDX7)	100%
ACVR2A (Homo sapiens, UniProt P27037)	100%
CDK15 (Homo sapiens, UniProt Q96Q40)	100%
LYN (Homo sapiens, UniProt P07948)	82%
ABL2 (Homo sapiens, UniProt P42684)	100%

Set 2
Structure (SMILES): NC(N)=NC(=O)c1nc(Cl)c(N2CCCCCC2)nc1N
Read-out: β-arrestin recruitment
Action: agonist
Technique: PRESTO-Tango
Concentration: 10 µM
Baseline: untreated
target	fold over basal
C5AR1 (Homo sapiens, UniProt P21730)	0.61
PTH2R (Homo sapiens, UniProt P49190)	0.94
Adhesion G protein-coupled receptor A3 (ADGRA3, Homo sapiens, UniProt Q8IWK6)	1.05

Set 3
Host: mouse
Sample: microsomes or S9
Concentration: 2 µM
Time: 0.5 h
SMILES	remaining compound
CC1CCCC(C)C1NC(=O)Nc1cc(C#N)cn1C(C)(C)C (stereo not shown)	2.57%
Cc1cc(-n2c(C)cc(C(=O)CSc3[nH]c(=O)cc(C(F)(F)F)c3C#N)c2C)no1	8.39%
O=S(=O)(NC1CCCC12CCOCC2)c1cccc2ccoc12 (stereo not shown)	7.27%

Set 4
Technique: PRP chromatography estimate
Sample: 1,9-decadiene/PBS
pH: 7.4
Compound	logD
CC(C)C[C@@H]1NC(=O)[C@@H](C)NC(=O)[C@H](Cc2cscn2)NC(=O)[C@H](C)NC(=O)[C@H](C(C)C)NC(=O)[C@H](CC(C)C)NC(=O)[C@@H](CC(C)C)NC1=O	-2
CCC[C@H]1NC(=O)CSC[C@@H](C(=O)OCC)N(C)C(=O)[C@H](CC(C)C)NC(=O)[C@@H](C)N(C)C(=O)[C@H](CC(C)C)NC(=O)[C@H](C)N(C)C(=O)[C@@H]2CCCN2C(=O)[C@@H](CC(C)C)NC(=O)CN(C)C1=O	-0.724
CC(C)C[C@@H]1NC(=O)[C@H](CC(C)C)NC(=O)[C@H](CC(C)C)NC(=O)[C@H](CC(C)C)NC(=O)[C@@H](Cc2cscn2)NC(=O)[C@H](C)NC(=O)[C@H](CCC(=O)N2CCCC2)NC1=O	-1.7

Set 5
Cell line: mouse MPNST tumor cells
Technique: high-content immunofluorescence imaging
Item: nuclear SOX9
Concentration: 10 µM
Time: 12 h
Setting: mean of 2 replicates
Baseline: DMSO control
Direction: higher = more nuclear SOX9
Structure (SMILES)	nuclear SOX9 intensity
CS(=O)(=O)c1cccc(CNc2nc(Nc3ccc4c(c3)CCC(=O)N4)ncc2C(F)(F)F)c1	69.6 % of DMSO
O=[N+]([O-])c1ccc2nc(COCc3nc4ccc([N+](=O)[O-])cc4[nH]3)[nH]c2c1	84.3 % of DMSO
COc1ccc(Cl)cc1[C@]1(F)C(=O)Nc2cc(C(F)(F)F)ccc21	115 % of DMSO

Other studies, line by line
SMILES	tested on	assay	setting	how to read	quantity	result
CC(C(=O)O)c1ccc2c(c1)CC(=O)c1ccccc1S2 (stereo not shown)	HaCaT		100 µM, 60 h		viability	145%
C[C@@H]1CN(c2ccc(-c3cc(C(=O)NCCOCCOCCOCCOCCNC(=O)Cn4cc(-c5[nH]cc(C(=O)N[C@@H](CC(N)=O)c6ccc(F)c(Cl)c6)c5-c5ccc(Cl)cc5F)cn4)ccc3F)cc2NC(=O)c2c[nH]c(=O)cc2C(F)(F)F)C[C@H](C)N1C	WDR5 (Homo sapiens, UniProt P61964)	degrader, Jess capillary immunoassay, item: WDR5 over vinculin	141 nM, 24 h	baseline: DMSO	remaining protein level	113% and 101% and 82%
COc1cc(NS(=O)(=O)c2ccc(N)cc2)ncn1	HaCaT		100 µM, 60 h		viability	115%
CC(C)S(=O)(=O)c1ccc2nccc(Nc3ccc4sc(C5CCCC5)nc4c3)c2c1	HT-29	necroptosis	together with: TNF-α		EC50	854 nM
COc1cc2c(Nc3ccc(Br)cc3F)ncnc2cc1OCC1CCN(C)CC1	HaCaT		100 µM, 60 h		viability	15.7%
